Measurements from different studies.
Compare with care: the assays were run in different laboratories. “And” joins repeats or separate records; there may be more than shown. ± marks the error that the study gave.

Structure (SMILES) | cell line | test | setting | scale | viability
Oc1ccc(C2(c3ccc(O)cc3)c3ccccc3-c3ccccc32)cc1 | HepG2 spheroids | annexin V/PI flow cytometry | 40 µM, 24 h |  | 57.9 ± 10.8%
C[C@H](NC(=O)[C@H](Cc1ccc(O)cc1)NC(=O)[C@H](CCCNC(=N)N)NC(=O)[C@H](CCCNC(=N)N)NC(=O)[C@H](CCCNC(=N)N)NC(=O)[C@@H](N)CCCNC(=N)N)C(=O)N[C@@H](CCCNC(=N)N)C(=O)N1CCC[C@H]1C(=O)N[C@@H](Cc1ccc(O)cc1)C(=O)N[C@@H](Cc1ccc(O)cc1)C(=O)N[C@@H](CCCNC(=N)N)C(=O)N[C@@H](CCCNC(=N)N)C(=O)N[C@@H](CCCNC(=N)N)C(=O)O | DF-1 |  | 5 µM, 48 h | relative to: untreated cells | 100.7 ± 0.51%
Cc1ccc(C2=CSC3=NC4=C(CNC/C4=C/c4ccc(Cl)cc4)C(c4ccc(Cl)cc4)N23)cc1 (stereo not drawn) | SH-SY5Y | MTT | 0.2 to 40 µM, 24 h |  | not toxic
Cc1cc(C)nc(Nc2ncc(C(=O)NCCc3c(C)[nH]c4ccccc34)cn2)c1 | human cryopreserved hepatocytes |  | 0.3, 3, 30 µM, 48 h | relative to: vehicle | > 96%
N=C(N)NCCC[C@H](NC(=O)[C@H](CCCNC(=N)N)NC(=O)[C@H](CCCNC(=N)N)NC(=O)[C@H](CCC(N)=O)NC(=O)[C@H](CCCNC(=N)N)NC(=O)[C@H](CCCNC(=N)N)NC(=O)[C@H](CCCCN)NC(=O)[C@H](CCCCN)NC(=O)[C@H](CCCNC(=N)N)NC(=O)CNC(=O)[C@@H](N)Cc1ccc(O)cc1)C(=O)O | DF-1 | LDH release | 3 µM, 1 h |  | 98.6 ± 2.14%
Cn1cc2cc(C(F)(F)c3nnc4ccc(-c5cnn(C6CC6)c5)nn34)c(F)cc2n1 | MKN-45 | CCK-8 | 0.025 µM, 72 h | relative to: untreated | 7.04% and 6.22% and 6.96%
N=C(N)NCCC[C@H](NC(=O)[C@H](CCCNC(=N)N)NC(=O)[C@H](CCCCN)NC(=O)[C@H](CCCNC(=N)N)NC(=O)[C@H](Cc1ccccc1)NC(=O)[C@H](Cc1ccc(O)cc1)NC(=O)[C@H](CCCNC(=N)N)NC(=O)[C@H](CCCNC(=N)N)NC(=O)[C@H](CCCNC(=N)N)NC(=O)[C@H](CCCNC(=N)N)NC(=O)[C@H](CCCNC(=N)N)NC(=O)[C@H](Cc1ccc(O)cc1)NC(=O)[C@H](CCCNC(=N)N)NC(=O)[C@@H](N)CCCNC(=N)N)C(=O)O | DF-1 |  | 5 µM, 12 h | relative to: untreated cells | 101 ± 0.18%
O=C1CCP(=S)(c2ccccc2)CC1 | SW480 | trypan blue | IC50, 72 h |  | 90%
O=[N+]([O-])c1ccc(-c2nn(-c3ccccc3)c3sc(NC(c4ccccc4O)P(=O)(Oc4ccccc4)Oc4ccccc4)nc23)cc1 (stereo not drawn) | Vero cells | SRB | 100 µM, 10% fetal bovine serum |  | 81.1%
Brc1ccc(/C=C2/CNCC3=C2N=C2SC=C(c4ccc5ccccc5c4)N2C3c2ccc(Br)cc2)cc1 (stereo not drawn) | SH-SY5Y | MTT | 0.2 to 40 µM, 24 h |  | not toxic
CN(C)c1ccc(C(Nc2nc3c(-c4ccc([N+](=O)[O-])cc4)nn(-c4ccccc4)c3s2)P(=O)(Oc2ccccc2)Oc2ccccc2)cc1 (stereo not drawn) | Vero cells | SRB | 0.01 µM, 10% fetal bovine serum |  | 99.7%
Cc1ccc(C2=CSC3=NC4=C(CNC/C4=C/c4ccc(Br)cc4)C(c4ccc(Br)cc4)N23)cc1 (stereo not drawn) | SH-SY5Y | MTT | 0.2 to 40 µM, 24 h |  | not toxic

Excerpt of the above:
Structure (SMILES) | cell line | test | setting | scale | viability
O=[N+]([O-])c1ccc(-c2nn(-c3ccccc3)c3sc(NC(c4ccccc4O)P(=O)(Oc4ccccc4)Oc4ccccc4)nc23)cc1 (stereo not drawn) | Vero cells | SRB | 100 µM, 10% fetal bovine serum |  | 81.1%
